Measurements pooled from the literature.
Parts stem from different laboratories: compare values within a part only. Values joined by “and” are separate records of one study, mostly repeats; a detail may differ. Positions count from the first letter of the parent shown.

Study 1
Target: inorganic phosphate, free oxyanion
Technique: microfluidic competitive inhibition
Sample: in vitro, cell-free expressed
Tested at: not given
Notes: derived from inhibition constants, unchanged parent 615000 nM
Reading: lower = stronger binding
Parent: PafA, mature enzyme, eGFP fusion (Elizabethkingia meningoseptica, UniProt Q9KJX5); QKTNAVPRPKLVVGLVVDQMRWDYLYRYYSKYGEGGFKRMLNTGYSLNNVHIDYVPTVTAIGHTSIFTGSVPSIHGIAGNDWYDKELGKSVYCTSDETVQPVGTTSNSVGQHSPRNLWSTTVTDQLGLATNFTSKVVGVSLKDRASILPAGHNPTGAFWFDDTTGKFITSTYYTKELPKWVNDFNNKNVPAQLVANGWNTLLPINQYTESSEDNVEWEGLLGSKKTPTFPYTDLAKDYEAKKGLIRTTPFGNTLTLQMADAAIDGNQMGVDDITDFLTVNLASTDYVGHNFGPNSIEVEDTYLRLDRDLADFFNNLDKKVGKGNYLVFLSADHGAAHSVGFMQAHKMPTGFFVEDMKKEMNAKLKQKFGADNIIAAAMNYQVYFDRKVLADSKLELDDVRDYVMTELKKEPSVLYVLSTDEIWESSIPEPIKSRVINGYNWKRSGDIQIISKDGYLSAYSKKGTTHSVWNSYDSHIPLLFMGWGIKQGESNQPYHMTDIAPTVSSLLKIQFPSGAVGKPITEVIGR
`E354V`: “phosphate dissociation constant” 558 µM.
`N196G`: “phosphate dissociation constant” 537 µM.
Under “phosphate dissociation constant”, `D237G` is recorded as 418 µM.
For `T43G`, “phosphate dissociation constant” read 502 µM.
For `T130V`, “phosphate dissociation constant” read 556 µM.
`P411G` — result for “phosphate dissociation constant”: 634 µM.
`T123G` — result for “phosphate dissociation constant”: 616 µM.
Under “phosphate dissociation constant”, `N437G` is recorded as 548 µM.
Under “phosphate dissociation constant”, `D385V` is recorded as 631 µM.
Under “phosphate dissociation constant”, `K393G` is recorded as 576 µM.
For `N182V`, “phosphate dissociation constant” read 657 µM.
`M342V` — result for “phosphate dissociation constant”: 637 µM.
`S490G` — result for “phosphate dissociation constant”: 539 µM.
`D53G`: “phosphate dissociation constant” 410 µM.
For `D161G`, “phosphate dissociation constant” read 753 µM.
For `T349G`, “phosphate dissociation constant” read 526 µM.
For `K225V`, “phosphate dissociation constant” read 608 µM.
For `A145G`, “phosphate dissociation constant” read 884 µM.
`D317G`: “phosphate dissociation constant” 582 µM.
For `N470G`, “phosphate dissociation constant” read 443 µM.
For `V136A`, “phosphate dissociation constant” read 594 µM.
For `D300V`, “phosphate dissociation constant” read 310 µM.
For `D371V`, “phosphate dissociation constant” read 607 µM.
Under “phosphate dissociation constant”, `N440V` is recorded as 577 µM.
`F312G` — result for “phosphate dissociation constant”: 572 µM.

Study 2
Change: H16Y
Target: ABI1, truncated, D143A, DHFR fusion (Arabidopsis thaliana)
Technique: DHFR PCA, deep sequencing
Sample: yeast
Notes: methotrexate growth selection, single substitutions
Baseline: wild-type fitted maximum
Reading: higher = stronger binding
Parent: PYL1, truncated, DHFR fusion (Arabidopsis thaliana); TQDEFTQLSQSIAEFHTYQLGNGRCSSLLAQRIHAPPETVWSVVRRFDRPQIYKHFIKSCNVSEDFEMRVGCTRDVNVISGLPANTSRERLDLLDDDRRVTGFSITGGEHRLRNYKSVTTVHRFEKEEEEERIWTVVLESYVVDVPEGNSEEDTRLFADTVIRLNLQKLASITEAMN
For with: (+)-ABA 58 µM: “relative binding score” read 4.55%.
For with: (+)-ABA 0 µM: “relative binding score” read 1.29%.
The “relative binding score” was -21.8% (with: (+)-ABA 200 µM).
with: (+)-ABA 710 µM — “relative binding score”: -12.6%.
The “relative binding score” was 1.21% (with: (+)-ABA 0.0091 µM).
It gave -25.9% for “relative binding score” (with: (+)-ABA 4.8 µM).

Study 3
Target: CCND1, cyclin fold, Cln2 fusion (human)
Technique: yeast growth competition, sequencing
Sample: yeast
Notes: strong parent motif
Baseline: not given
Reading: higher = stronger binding
Parent: viral docking peptide; KGVKRKLFAEDSS
`V3M`: “normalised enrichment score” -0.219.
`A9Q`: “normalised enrichment score” 1.17.
For `K4T`, “normalised enrichment score” read 0.267.
For `G2W`, “normalised enrichment score” read 0.719.
`R5K`: “normalised enrichment score” 0.241.
Under “normalised enrichment score”, `K6R` is recorded as 1.54.
`F8V`: “normalised enrichment score” 0.21.
`L7Y`: “normalised enrichment score” 0.105.
For `S12V`, “normalised enrichment score” read 1.46.
`A9C`: “normalised enrichment score” 1.3.
For `D11W`, “normalised enrichment score” read 0.292.
Under “normalised enrichment score”, `L7S` is recorded as 0.073.
Under “normalised enrichment score”, `V3R` is recorded as 0.0866.
`D11K`: “normalised enrichment score” 0.566.
`E10R` — result for “normalised enrichment score”: 0.416.
For `R5Y`, “normalised enrichment score” read 0.0737.
`S12T` — result for “normalised enrichment score”: 1.4.
`F8W`: “normalised enrichment score” 0.0515.
`V3H` — result for “normalised enrichment score”: 0.379.
For `D11H`, “normalised enrichment score” read 0.504.
`K4C` — result for “normalised enrichment score”: 4.17.
`A9W`: “normalised enrichment score” 0.101.
Under “normalised enrichment score”, `A9I` is recorded as 1.01.
Under “normalised enrichment score”, `V3W` is recorded as 0.18.
`K4G` — result for “normalised enrichment score”: 0.466.

Mixed results
The inhibition of CCOc1ccc(Nc2c3c(nc4ccccc24)CCC3)cc1 is reported as 1% and 5% (Leishmania donovani; parasite growth; DD8 amphotericin B-resistant, intracellular amastigotes; 0.02 µM).

For quick reference, copied from above (study 3):
For `S12V`, “normalised enrichment score” read 1.46.
`A9C`: “normalised enrichment score” 1.3.
For `D11W`, “normalised enrichment score” read 0.292.
Under “normalised enrichment score”, `L7S` is recorded as 0.073.
Under “normalised enrichment score”, `V3R` is recorded as 0.0866.
`D11K`: “normalised enrichment score” 0.566.
`E10R` — result for “normalised enrichment score”: 0.416.
For `R5Y`, “normalised enrichment score” read 0.0737.
`S12T` — result for “normalised enrichment score”: 1.4.
